Published values of several laboratories.
Compare with care: the assays were run in different laboratories.
Organism: Staphylococcus aureus

Compound | assay | system | setting | MBC
CC[C@H](C)[C@H](NC(=O)[C@H](CCCCN)NC(=O)[C@H](CCCNC(=N)N)NC(=O)CNC(=O)[C@@H](NC(=O)CN)C(C)C)C(=O)NCC(=O)N[C@@H](Cc1ccccc1)C(=O)N[C@@H](CCCCN)C(=O)N[C@@H](CCCCN)C(=O)N[C@H](C(=O)N[C@@H](CC(C)C)C(=O)N[C@@H](Cc1ccccc1)C(=O)N[C@@H](Cc1ccccc1)C(=O)N[C@@H](Cc1ccccc1)C(=O)N[C@@H](CCCCN)C(=O)N[C@@H](CCCCN)C(=O)NCC(=O)N[C@@H](Cc1ccc(O)cc1)C(=O)N[C@@H](CCC(=O)O)C(=O)N[C@@H](CCCCN)C(=O)N[C@@H](C)C(=O)N[C@@H](CC(N)=O)C(=O)NCC(=O)NCC(=O)N[C@@H](Cc1ccccc1)C(=O)N[C@H](C(=O)N[C@@H](CCCCN)C(=O)N[C@@H](CCCCN)C(=O)N[C@@H](CCCCN)C(=O)NCC(=O)O)C(C)C)C(C)C | broth microdilution, agar subculture | ATCC 12600, CaMHB | – | > 1020 µM
CC[C@H](C)[C@@H]1NC(=O)[C@H](CO)NC(=O)[C@H](CCCCN)NC(=O)[C@@H]2CSSC[C@@H](C(=O)N[C@@H](Cc3ccc(O)cc3)C(N)=O)NC(=O)[C@H](CCCCN)NC(=O)[C@@H]3CSSC[C@H](NC(=O)[C@H](CCCNC(=N)N)NC(=O)[C@H](CC(C)C)NC(=O)[C@H](CC(=O)O)NC(=O)[C@H](CC(=O)O)NC(=O)[C@H](CCC(=O)O)NC(=O)[C@H](CC(N)=O)NC(=O)[C@H](Cc4c[nH]c5ccccc45)NC(=O)C(C)(CC)NC(=O)CNC(=O)[C@H](CC(N)=O)NC(=O)[C@@H](NC(=O)CNC(=O)[C@H](Cc4ccccc4)NC(=O)CN)CSSC[C@H](NC(=O)[C@H](Cc4ccc(O)cc4)NC(=O)CNC(=O)CNC(=O)[C@H](CCCCN)NC(=O)[C@H](Cc4ccc(O)cc4)NC(=O)[C@H]4CCCN4C(=O)[C@@H]4CCCN4C1=O)C(=O)N[C@@H](C)C(=O)N[C@@H](CCCCN)C(=O)N1CCC[C@@H]1C(=O)NCC(=O)N[C@@H](Cc1ccccc1)C(=O)N[C@@H](C(C)C)C(=O)N3)C(=O)N[C@@H](Cc1c[nH]cn1)C(=O)N[C@@H](CC(N)=O)C(=O)N[C@@H](Cc1c[nH]cn1)C(=O)N2 (stereo partly drawn) | – | 469 | 24 h, 37 °C, 99.9% killing | 1 µM
CCCC(=O)OCCSC[C@H](N)C(=O)N[C@H](CCN)C(=O)N[C@@H](CCN)C(=O)N[C@@H](CCN)C(=O)N[C@@H](CC(C)C)C(=O)N[C@H](Cc1ccccc1)C(=O)N[C@@H](CCN)C(=O)N[C@@H](CCN)C(=O)N[C@@H](CC(C)C)C(N)=O | – | ATCC 6538 | 24 h, 37 °C | > 128 µM
CC[C@H](C)[C@@H]1NC(=O)[C@H](CO)NC(=O)C(C)(CCCCN)NC(=O)[C@@H]2CSSC[C@@H](C(=O)N[C@@H](Cc3ccc(O)cc3)C(N)=O)NC(=O)[C@H](CCCCN)NC(=O)[C@@H]3CSSC[C@H](NC(=O)[C@H](CCCNC(=N)N)NC(=O)C(C)(CC(C)C)NC(=O)[C@H](CC(=O)O)NC(=O)[C@H](CC(=O)O)NC(=O)[C@H](CCC(=O)O)NC(=O)[C@H](CC(N)=O)NC(=O)[C@H](Cc4c[nH]c5ccccc45)NC(=O)C(C)(CC)NC(=O)CNC(=O)[C@H](CC(N)=O)NC(=O)[C@@H](NC(=O)CNC(=O)[C@H](Cc4ccccc4)NC(=O)CN)CSSC[C@H](NC(=O)[C@H](Cc4ccc(O)cc4)NC(=O)CNC(=O)CNC(=O)[C@H](CCCCN)NC(=O)[C@H](Cc4ccc(O)cc4)NC(=O)[C@H]4CCCN4C(=O)[C@@H]4CCCN4C1=O)C(=O)N[C@@H](C)C(=O)N[C@@H](CCCCN)C(=O)N1CCC[C@@H]1C(=O)NCC(=O)N[C@@H](Cc1ccccc1)C(=O)N[C@@H](C(C)C)C(=O)N3)C(=O)N[C@@H](Cc1c[nH]cn1)C(=O)NC(C)(C)C(=O)N[C@@H](Cc1c[nH]cn1)C(=O)N2 (stereo partly drawn) | – | 473 | 24 h, 37 °C, 99.9% killing | 2 µM
CCC(C)CCC(=O)N[C@H](CCN)C(=O)N[C@@H](CCN)C(=O)N[C@@H](CCN)C(=O)N[C@@H](CC(C)C)C(=O)N[C@H](Cc1ccccc1)C(=O)N[C@@H](CCN)C(=O)N[C@@H](CCN)C(=O)N[C@@H](CC(C)C)C(N)=O (stereo partly drawn) | – | ATCC 6538 | 24 h, 37 °C | 128 µM
CC[C@H](C)[C@H](NC(=O)[C@H](CCCCN)NC(=O)[C@H](CCCCN)NC(=O)[C@H](Cc1ccccc1)NC(=O)[C@H](Cc1ccccc1)NC(=O)[C@H](CCCCN)NC(=O)[C@H](CCCCN)NC(=O)[C@H](Cc1ccccc1)NC(=O)[C@H](CCCNC(=N)N)NC(=O)[C@@H](N)CCCCN)C(=O)N[C@@H](CCCCN)C(=O)N[C@@H](CCCCN)C(=O)N[C@@H](CO)C(=O)N[C@H](C(=O)N[C@@H](CCCCN)C(=O)N[C@@H](CCCCN)C(=O)N[C@@H](CCCNC(=N)N)C(=O)N[C@H](C(=O)N[C@@H](CCCCN)C(=O)N[C@@H](CCCCN)C(=O)N[C@@H](CC(C)C)C(=O)N[C@@H](Cc1ccccc1)C(=O)N[C@@H](CCCCN)C(=O)N[C@@H](CCCCN)C(=O)N1CCC[C@H]1C(=O)N[C@@H](CCCNC(=N)N)C(=O)N[C@H](C(=O)N[C@H](C(=O)N1CCC[C@H]1C(=O)N[C@H](C(=O)N[C@@H](CO)C(=O)N[C@H](C(=O)N1CCC[C@H]1C(=O)N[C@@H](Cc1ccccc1)C(=O)O)[C@@H](C)CC)[C@@H](C)CC)[C@@H](C)CC)C(C)C)C(C)C)C(C)C | – | MRSA, clinical isolate | 20 h, 37 °C | 32 mg/L
CC(C)C[C@H](NC(=O)[C@H](CCN)NC(=O)[C@H](CCN)NC(=O)[C@@H](Cc1ccccc1)NC(=O)[C@H](CC(C)C)NC(=O)[C@H](CCN)NC(=O)[C@H](CCN)NC(=O)[C@@H](CCN)NC(=O)CCSCCOC(=O)c1ccccc1)C(N)=O | – | ATCC 6538 | 24 h, 37 °C | 32 µM
Oc1c(Br)cc(Br)c2nc3cc(C(F)(F)F)ccc3nc12 | plating of MIC wells | MRSA BAA-1707 | – | 0.3 µM
COc1ccc(CC2[NH2+]CCc3cc(OC)c(OC)cc32)cc1OC.[Cl][Fe-]([Cl])([Cl])[Cl] (stereo not drawn) | – | – | 24 h, 37 °C | > 1600 µM

Repeated from above:
Compound | assay | system | setting | MBC
CC(C)C[C@H](NC(=O)[C@H](CCN)NC(=O)[C@H](CCN)NC(=O)[C@@H](Cc1ccccc1)NC(=O)[C@H](CC(C)C)NC(=O)[C@H](CCN)NC(=O)[C@H](CCN)NC(=O)[C@@H](CCN)NC(=O)CCSCCOC(=O)c1ccccc1)C(N)=O | – | ATCC 6538 | 24 h, 37 °C | 32 µM
CCC(C)CCC(=O)N[C@H](CCN)C(=O)N[C@@H](CCN)C(=O)N[C@@H](CCN)C(=O)N[C@@H](CC(C)C)C(=O)N[C@H](Cc1ccccc1)C(=O)N[C@@H](CCN)C(=O)N[C@@H](CCN)C(=O)N[C@@H](CC(C)C)C(N)=O (stereo partly drawn) | – | ATCC 6538 | 24 h, 37 °C | 128 µM
